Assay results pooled from the literature.
± gives the spread as reported.

CC[C@H](C)C(=O)N1CCC(NC(=O)Nc2ccc(OC(F)(F)F)c(F)c2)CC1 — participants with any Moderate TEAE (healthy volunteers, both sexes; oral, 8 mg single dose, fasted state): 0%
[11CH3]n1c(=O)n(CCCO)c(=O)c2c1nc(Oc1cccc(OC(F)(F)F)c1)n2Cc1ccc(Cl)cc1 — tracer uptake (ex vivo biodistribution; Sprague Dawley rat, blood; 5 min post injection): 0.22 ± 0.05 %ID/g
Cc1nnc(-c2ccc(CC(=O)NCCNC(=O)[C@H](CCCCNC(=O)CNC(=O)[C@H](CCCCN)NC(=O)[C@H](CC(=O)O)NC(=O)[C@H](CC(=O)O)NC(=O)[C@H](CC(=O)O)NC(=O)[C@H](CC(=O)O)NC(=O)[C@H](CCCCN)NC(=O)[C@H](Cc3ccc(O)cc3)NC(=O)[C@@H](N)CC(=O)O)NC(=O)[C@H](Cc3ccccc3)NC(=O)[C@H](Cc3ccccc3)NC(=O)Cc3ccc4ccccc4c3)cc2)nn1 — compound remaining (chemical stability, mass spectrometry; human, serum; 200 µM, 4 h): ~70%
CC(C)C[C@H](NC(=O)CNC(=O)[C@H](CCC(=O)O)NC(=O)[C@H](CCCCN)NC(=O)[C@H](CC(C)C)NC(=O)[C@H](C)NC(=O)[C@H](C)NC(=O)CNC(=O)[C@H](C)NC(=O)[C@H](CCCCN)NC(=O)[C@H](CCC(=O)O)NC(=O)[C@H](CC(C)C)NC(=O)[C@H](CCCCN)NC(=O)[C@H](CCCCN)NC(=O)[C@H](CC(C)C)NC(=O)[C@H](CC(C)C)NC(=O)[C@H](CCCCN)NC(=O)[C@H](Cc1c[nH]c2ccccc12)NC(=O)[C@@H](N)CCCCN)C(=O)N[C@@H](CC(C)C)C(=O)N[C@@H](CCCCN)C(=O)N[C@@H](C)C(=O)NCC(=O)N1CCC[C@H]1C(=O)N[C@@H](C)C(=O)N[C@@H](CC(C)C)C(=O)N[C@@H](C)C(=O)N[C@@H](CC(C)C)C(=O)N[C@@H](CC(C)C)C(=O)NCC(=O)N[C@@H](C)C(=O)N[C@@H](C)C(=O)N[C@@H](C)C(=O)N[C@@H](C)C(=O)N[C@@H](CC(C)C)C(=O)N[C@@H](C)C(=O)N[C@@H](CCCCN)C(N)=O — helicity (circular dichroism; phosphate buffer 10 mM; 1 to 5 µM, pH 7.5, approximate): ~30%
[2H]C([2H])([2H])C([2H])([2H])C([2H])([2H])OC(C(=O)OC1CCNCC1)(c1ccccc1)c1ccccc1 — diarrhoea incidence (healthy Japanese male; oral, 8 to 18 mg once daily, 16 days): 14.3%
CSCC[C@@H]1NC(=O)[C@@H]2CSSC[C@H](NC(=O)[C@H](CO)NC(=O)[C@H](C)N)C(=O)N[C@@H](CCCNC(=N)N)C(=O)N[C@@H]([C@@H](C)O)C(=O)N3CCC[C@H]3C(=O)N[C@@H](CCCCN)C(=O)N[C@@H](CC(=O)O)C(=O)N[C@H]3CSSC[C@H](NC(=O)[C@H](CCCCN)NC(=O)[C@H](CCCNC(=N)N)NC(=O)[C@H](CC(N)=O)NC1=O)C(=O)N[C@@H](CCCCN)C(=O)N[C@H]1CSSC[C@H](NC(=O)[C@@H]4CCCN4C(=O)[C@H](CC(=O)O)NC(=O)[C@H](C)NC3=O)C(=O)N[C@@H](C)C(=O)N[C@@H](CCCCN)C(=O)N[C@@H](CCC(=O)O)C(=O)N[C@@H]([C@@H](C)O)C(=O)NCC(=O)N[C@@H](CSSC[C@@H](C(N)=O)NC(=O)[C@H](CCCNC(=N)N)NC(=O)[C@H](CC(N)=O)NC1=O)C(=O)N1CCC[C@H]1C(=O)N[C@@H](Cc1ccc(O)cc1)C(=O)NCC(=O)N[C@@H](CCCCN)C(=O)N2 — AST (DA rat, pristane-induced arthritis, serum; subcutaneous, single 0.1 mg/kg at onset, end of 21-day trial): 116 U/L
CCCCCCCCCCCCCCC(=O)O.O=C1CCCC2C3CCCN4CCCC(CN12)C34 (stereo not drawn) — log octanol-water partition coefficient (shake-flask; simulated body fluid; pH 7.4, 37 °C): 0.93
COC(=O)C[C@](O)(CCCC(C)(C)OC(C)=O)C(=O)O[C@@H]1C(OC)=C[C@]23CCCN2CCc2cc4c(cc2[C@H]13)OCO4 — tissue concentration (CD1 mouse, spleen; subcutaneous, 1 mg/kg, 24 h, below quantification limit 1.00 ng/mL): not detected
CCCC(CCC)C(=O)OC1O[C@@H]2O[C@@]3(C)CC[C@H]4[C@H](C)CCC([C@H]1C)[C@@]24OO3 (stereo partly drawn) — dead embryos (Tg(fli1:EGFP) zebrafish embryos; 1.0 µg/mL, up to 48 hpf): 3 count
CN(C)c1ccc(OC(=O)NC2CCCCC2)cc1-c1ccccc1 — log hydrolysis rate constant (rat liver S9 fraction; added: NADPH-regenerating system): -0.86
C[C@H](O)[C@@H](NC(=O)[C@H]1CCCN1C(=O)[C@@H](CCCCN)NC(=O)[C@@H](CO)NC(=O)[C@@H](Cc1ccc(O)cc1)NC(=O)[C@@H](CC(N)=O)NC(=O)CCOCCOCCOCCNC(=O)CN1CCN(CC(=O)O)CCN(CC(=O)O)CCN(CC(=O)O)CC1)C(=O)N[C@H](CC(=O)O)C(=O)N[C@H](CCCNC(=N)N)C(=O)N[C@H](CCC(N)=O)C(=O)N[C@H](Cc1ccc(O)cc1)C(=O)N[C@H](Cc1c[nH]cn1)C(=O)N[C@H](Cc1ccccc1)C(N)=O [copper-64 labelled] — time to heart signal disappearance (dynamic PET; C57BL/6J mice; intravenous, dose not given): 4 to 6 min
CCc1noc(CC)c1C(=O)O[C@H]1C(C)=C[C@]23C(=O)[C@@H](C=C(CO)[C@@H](O)[C@]12O)[C@H]1[C@@H](C[C@H]3C)C1(C)C — epidermal over dermal concentration ratio (human, skin, Franz diffusion cell; topical, 0.1% in gel, 21 h; reference: epidermis over dermis): > 100 fold
CSCC[C@H](NC(=O)[C@H](CC(N)=O)NC(=O)[C@@H](N)Cc1ccccc1)C(=O)N[C@@H](CCC(N)=O)C(=O)N[C@@H](C)C(=O)N[C@@H](CCC(N)=O)C(=O)N[C@@H](CCCNC(=N)N)C(=O)N[C@@H](CCCNC(=N)N)C(=O)N[C@@H](Cc1ccccc1)C(=O)N[C@@H](Cc1ccc(O)cc1)C(=O)N[C@@H](CCC(=O)O)C(=O)N[C@@H](C)C(=O)N[C@@H](CC(C)C)C(=O)N[C@@H](Cc1c[nH]cn1)C(=O)N[C@@H](CC(=O)O)C(=O)NCC(=O)NCC(=O)NCC(=O)NCC(=O)N[C@@H](CO)C(=O)N[C@@H](C)C(=O)N[C@@H](CCC(=O)O)C(=O)N[C@@H](C)C(=O)N[C@@H](CCC(=O)O)C(=O)N[C@@H](C)C(=O)N[C@@H](CCCCN)C(=O)N[C@@H](C)C(=O)N[C@@H](CCCCN)C(=O)N[C@@H](C)C(=O)N[C@@H](CCC(=O)O)C(=O)N[C@@H](C)C(=O)N[C@@H](CCC(=O)O)C(=O)N[C@@H](C)C(=O)N[C@@H](CCCCN)C(=O)N[C@@H](C)C(=O)N[C@@H](CCCCN)C(=O)O — fibril width, second population (TEM; PBS; 0.05 mg/mL): 28.3 ± 8.18 nm
CC(C)(CCCC/C=C/CCCCCC(C)(C)C(=O)O)C(=O)O — AUC(0-t) (rhesus monkey, male, hyperlipidaemic, plasma; oral, 20 mg/kg, first dose): 1780 ± 530 µg·h/mL
C[C@]12CC[C@H](O)CC1CCC1C2[C@H](O)C(=O)[C@]2(C)[C@@H](c3ccc(=O)oc3)CC[C@]12O (stereo partly drawn) — Km (sulfation, substrate; pooled human liver cytosol; pH 7.4): 69 ± 11 µM
O=C(O)[c-]1cccc1.O=C(Oc1ccc(-n2cccc2)cc1)[c-]1cccc1.[Fe+2] — Epc (cyclic voltammetry; acetonitrile; reference: Ag/AgCl): 901 mV
N=C(N)NCCC[C@H](NC(=O)[C@H](CCCNC(=N)N)NC(=O)[C@H](Cc1ccccc1)NC(=O)[C@H](Cc1c[nH]c2ccccc12)NC(=O)[C@H](Cc1c[nH]c2ccccc12)NC(=O)[C@H](Cc1ccccc1)NC(=O)[C@H](CCCNC(=N)N)NC(=O)[C@H](CCCNC(=N)N)NC(=O)[C@@H](N)Cc1ccccc1)C(=O)N[C@@H](Cc1ccccc1)C(N)=O — liver, spleen, kidney indices (ICR mouse; intraperitoneal, 5, 10, 20 mg/kg daily, 3 days; reference: saline): no effect
CCNc1cc2[o+]c3cc(NCC)c(C)cc3c(-c3ccccc3C(=O)OCCOCC[18F])c2cc1C — heart to liver ratio (PET; rat; 5 min p.i.): 1.2
CC(C)C[C@H](NC(=O)[C@H](CCCCN)NC(=O)[C@H](CCC(=O)O)NC(=O)[C@H](C)NC(=O)[C@@H](NC(=O)[C@H](CCCCN)NC(=O)[C@H](CC(=O)O)NC(=O)[C@H](Cc1ccc(O)cc1)NC(=O)[C@H](Cc1ccccc1)NC(=O)[C@H](C)NC(=O)[C@H](CCCCN)NC(=O)[C@H](CC(C)C)NC(=O)[C@H](Cc1c[nH]c2ccccc12)NC(=O)[C@@H](N)CC(=O)O)C(C)C)C(=O)N[C@@H](CCCCN)C(=O)N[C@@H](CCC(=O)O)C(=O)N[C@@H](C)C(=O)N[C@@H](Cc1ccccc1)C(=O)N1CCC[C@H]1C(=O)N[C@@H](CC(=O)O)C(=O)N[C@@H](Cc1c[nH]c2ccccc12)C(=O)N[C@@H](C)C(=O)N[C@@H](CCCCN)C(=O)N[C@@H](C)C(=O)N[C@@H](C)C(=O)N[C@@H](Cc1ccc(O)cc1)C(=O)N[C@@H](CC(=O)O)C(=O)N[C@@H](CCCCN)C(=O)N[C@@H](C)C(=O)N[C@@H](C)C(=O)N[C@@H](CCC(=O)O)C(=O)N[C@@H](CCCCN)C(=O)N[C@@H](C)C(=O)N[C@@H](CCCCN)C(=O)N[C@@H](CCC(=O)O)C(=O)N[C@@H](C)C(=O)N[C@@H](C)C(=O)O — Tmax (cynomolgus monkey male, plasma; intravenous infusion, 8 mg/kg, day 1, 30 min infusion): 0 h
O=C(NCCCCCn1ccc2ccc(F)cc21)Oc1ccccc1F — parent remaining (PBS with Triton X-100; 20 µM, 60 min, pH 7.4): 91 ± 3%
CC(C)[C@H](NC(=O)CNC(=O)[C@H](CCC(N)=O)NC(=O)[C@H](C)N)C(=O)O — subjects with moderate adverse events (human; intravenous infusion, 45 mg/kg/h, 2 h infusion): 0%

For quick reference, copied from above:
CC(C)C[C@H](NC(=O)CNC(=O)[C@H](CCC(=O)O)NC(=O)[C@H](CCCCN)NC(=O)[C@H](CC(C)C)NC(=O)[C@H](C)NC(=O)[C@H](C)NC(=O)CNC(=O)[C@H](C)NC(=O)[C@H](CCCCN)NC(=O)[C@H](CCC(=O)O)NC(=O)[C@H](CC(C)C)NC(=O)[C@H](CCCCN)NC(=O)[C@H](CCCCN)NC(=O)[C@H](CC(C)C)NC(=O)[C@H](CC(C)C)NC(=O)[C@H](CCCCN)NC(=O)[C@H](Cc1c[nH]c2ccccc12)NC(=O)[C@@H](N)CCCCN)C(=O)N[C@@H](CC(C)C)C(=O)N[C@@H](CCCCN)C(=O)N[C@@H](C)C(=O)NCC(=O)N1CCC[C@H]1C(=O)N[C@@H](C)C(=O)N[C@@H](CC(C)C)C(=O)N[C@@H](C)C(=O)N[C@@H](CC(C)C)C(=O)N[C@@H](CC(C)C)C(=O)NCC(=O)N[C@@H](C)C(=O)N[C@@H](C)C(=O)N[C@@H](C)C(=O)N[C@@H](C)C(=O)N[C@@H](CC(C)C)C(=O)N[C@@H](C)C(=O)N[C@@H](CCCCN)C(N)=O — helicity (circular dichroism; phosphate buffer 10 mM; 1 to 5 µM, pH 7.5, approximate): ~30%
C[C@]12CC[C@H](O)CC1CCC1C2[C@H](O)C(=O)[C@]2(C)[C@@H](c3ccc(=O)oc3)CC[C@]12O (stereo partly drawn) — Km (sulfation, substrate; pooled human liver cytosol; pH 7.4): 69 ± 11 µM
[2H]C([2H])([2H])C([2H])([2H])C([2H])([2H])OC(C(=O)OC1CCNCC1)(c1ccccc1)c1ccccc1 — diarrhoea incidence (healthy Japanese male; oral, 8 to 18 mg once daily, 16 days): 14.3%
